Measured values gathered from unrelated publications.
A part holds a random share of what one study measured. Several values in a cell are separate wells, animals, samples, runs or records.
Chain of UniProt Q05940 (whole entry, looked up): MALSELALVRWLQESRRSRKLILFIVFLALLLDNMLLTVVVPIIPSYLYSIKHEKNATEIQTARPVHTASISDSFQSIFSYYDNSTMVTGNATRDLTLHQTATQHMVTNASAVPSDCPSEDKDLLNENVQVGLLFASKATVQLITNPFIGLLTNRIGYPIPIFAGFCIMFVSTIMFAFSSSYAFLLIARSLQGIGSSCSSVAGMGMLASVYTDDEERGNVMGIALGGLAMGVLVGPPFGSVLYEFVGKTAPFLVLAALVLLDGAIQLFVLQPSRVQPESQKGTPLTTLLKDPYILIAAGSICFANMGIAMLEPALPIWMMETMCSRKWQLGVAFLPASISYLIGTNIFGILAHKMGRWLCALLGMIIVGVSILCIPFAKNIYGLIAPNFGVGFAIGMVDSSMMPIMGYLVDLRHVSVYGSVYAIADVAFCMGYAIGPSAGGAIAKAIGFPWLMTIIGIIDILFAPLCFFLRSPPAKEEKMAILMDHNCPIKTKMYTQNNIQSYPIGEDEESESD

Sample 1 — observed: ligand displacement; method: radioligand; concentration: 10 µM; endpoint: inhibition
Target: 5-hydroxytryptamine receptor 1A (HTR1A, Homo sapiens, UniProt P08908)
Chain of UniProt P08908 (whole entry, looked up): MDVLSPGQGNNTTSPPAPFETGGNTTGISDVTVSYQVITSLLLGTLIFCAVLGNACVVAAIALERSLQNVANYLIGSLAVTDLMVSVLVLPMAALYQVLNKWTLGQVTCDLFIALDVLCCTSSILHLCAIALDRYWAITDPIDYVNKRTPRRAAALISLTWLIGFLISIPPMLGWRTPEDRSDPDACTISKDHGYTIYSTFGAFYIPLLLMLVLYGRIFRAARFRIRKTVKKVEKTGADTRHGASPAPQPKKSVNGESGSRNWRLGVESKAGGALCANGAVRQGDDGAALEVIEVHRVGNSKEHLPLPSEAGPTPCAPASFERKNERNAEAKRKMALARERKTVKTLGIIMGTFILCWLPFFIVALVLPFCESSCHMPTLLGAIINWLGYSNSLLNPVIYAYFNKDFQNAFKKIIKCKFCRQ
O=S(=O)(NC1CCC(c2cc(F)ccc2F)(S(=O)(=O)c2ccc(Cl)cc2)CC1)C(F)(F)F (stereo not shown): 18.3%
O=C(NC[C@@H]1[C@H]2CN(C(=O)OCc3cc(C(F)(F)F)cc(C(F)(F)F)c3)C[C@@H]12)c1ccc2[nH]nnc2c1: 0.91%
O=C(N1CCS(=O)(=O)CC1)N1C[C@H](c2ccc(OC(F)(F)F)cc2)C[C@H](c2nc(C3CC3)no2)C1: 14.7%
CCS(=O)(=O)c1cc2cc(C[C@](O)(CC(C)(C)c3ccc(F)cc3C(N)=O)C(F)(F)F)[nH]c2cn1: -14.2%
Cn1cc(Cl)c2c(Oc3c(F)cc(Nc4cc(Cl)nc(N)n4)cc3F)ccnc21: -10.7%
CC(=O)N1CCC(c2ccc(C(=O)NC(=N)N)cc2C(F)(F)F)CC1: -5.21%
CNCc1ccccc1-c1csc([C@@H](C)Nc2nc(C)nc3cc(OC)c(OC)cc23)c1: 56.5%
CCCCN(CCCC)C(=O)CN1C[C@H](c2cc(OC)c3c(c2)OCO3)[C@@H](C(=O)O)[C@@H]1CC(C)(C)CCC: 20.6%
CN(C)C(=O)Cn1cc(-c2nc(C3(c4ccc(-c5cnc(N)nc5)cc4)CC3)no2)cn1: 31.5%
O=C1NC(c2ccccn2)Sc2ccccc21 (stereo not shown): 24.7%
COc1ccc2cc(OCC3(C(=O)O)CN(C(=O)c4ccc(F)cc4)C3)ccc2c1: -22.7%
O=C(c1ccc(F)cc1)N1CC(COc2ccc(Br)cc2)(C(=O)O)C1: -18.1%
CCNC(=O)c1cc2c(N3CCOC[C@@H]3C)ccnc2[nH]1: 69.8%
Cc1nc(N2CC[C@@H](O)C2)ncc1-c1cc(C(F)(F)F)cc2[nH]ncc12: 20%
CN(C)CC#Cc1ccc(OCCCc2sc(N3CCc4cccc(C(=O)Nc5nc6ccccc6s5)c4C3)nc2C(=O)O)c(F)c1: 5.18%
O=C(Nc1cccnn1)N1CC(CC=Cc2cncc(Oc3ccc(C(F)(F)F)cn3)n2)C1: -25%
CCOC(=O)c1cc2cc(-c3cc(C(=O)NCc4ccc(C(=O)O)cc4)nn3C)ccc2[nH]1: -13.5%
Cc1ccc(-c2cnc([C@@]3(O)CC[C@H](C(=O)O)C(C)(C)C3)s2)cc1Nc1cccc(C(F)(F)F)n1: 17.5%
CC(=O)C1=C(C)N(c2cccc(C(F)(F)F)c2)C(=O)N[C@@H]1c1ccc(C#N)nc1: 50%
O=C(NCc1ncc(C(F)(F)F)cc1Cl)c1ccc2c(c1)C1(CCS(=O)(=O)CC1)[C@H](C1CC1)N2S(=O)(=O)c1ccc(F)cc1: -17.3%

Sample 2 — endpoint: viability
SMILES: CO[C@@H]1[C@@H](OC(N)=O)[C@@H](O)[C@H](Oc2ccc3c(O)c(NC(=O)c4ccc(O)c(CC=C(C)C)c4)c(=O)oc3c2C)OC1(C)C
RPE-1 BRCA1-/- PARPi-resistant R3; CellTiter-Glo; 200 µM, 6 days: 42.3% and 41.2%
RPE-1 BRCA1-/- PARPi-resistant R3; CellTiter-Glo; 100 µM, 6 d: 66.5% and 67.1%
MDA-MB-436; cell growth or viability, ATP luminescence; 50 µM, 6 days: 27.2%
RPE-1 BRCA1-/- PARPi-resistant R4; CellTiter-Glo; 50 µM, 6 days: 72.8%
RPE-1 BRCA1-/- PARPi-resistant R4; CellTiter-Glo; 200 µM, 6 days: 45.8% and 46.7%

Sample 3 — observed: probe labelling; endpoint: inhibition
Compound: COc1cc(C(=O)N2CCC(N3CCN(C)CC3)CC2)ccc1Nc1ncc2c(n1)N(C)c1ccccc1C(=O)N2C
p38alpha (mouse); inhibitor, KiNativ ActivX ATP probe; mouse brain lysate; 0.1 µM, peptide QELNkTIWEVPER: -18.3%
WNK1, WNK2 and WNK4 (human); KiNativ, measured: IGDLGLATLkR peptide, activation loop; PBMC lysate (human); 0.1 µM, together with: ATP acyl-phosphate probe: 3.7%
SGK3 (mouse); KiNativ, measured: FYAVkVLQK peptide, LYS1 site; brain tissue lysate (mouse); 1 µM, together with: ATP acyl-phosphate probe: -13.2%
MAP2K6 (human); KiNativ ATP probe; human PBMC lysate; concentration not given, LYS2 labelled site: -1%

Sample 4 — organism: Plasmodium berghei; mode: inhibitor; cell line: Huh-7; strain: GFP-expressing sporozoites, liver stage; concentration: 10 µM; time: 24 h; baseline: untreated control; endpoint: infection rate
Nc1ccc(C(=O)O)c(O)c1: 98.8%
CC(=O)OCC(=O)[C@@]12OC3(CCCC3)O[C@@H]1C[C@H]1[C@@H]3CCC4=CC(=O)C=C[C@]4(C)[C@@]3(F)[C@@H](O)C[C@@]12C: 105%
CCN(CC)C(=O)N1CCN(C)CC1: 90.1%
O=C(O)CCCCCCCC(=O)O: 112%

Sample 5 — organism: Sarcocystis neurona; observed: parasite growth; concentration: 10 µM; time: 96 h; notes: first screen; endpoint: inhibition
C#C[C@]1(O)CC[C@H]2[C@@H]3[C@H](C)CC4=C(CCC(=O)C4)[C@H]3CC[C@@]21C: 9.3%
O=c1[nH]cnc2c1ncn2[C@H]1CC[C@@H](CO)O1: 6.3%
COc1ccc(OC)c(C(O)CNC(=O)CN)c1 (stereo not shown): -18.5%
Cc1cc(NS(=O)(=O)c2ccc(N)cc2)no1: -12.5%

Sample 6 — cell line: mouse MPNST tumor cells; method: high-content nuclear imaging; measured: cell number; concentration: 10 µM; time: 12 h; notes: mean of 2 replicates; baseline: plate mean; direction: higher = more cells; endpoint: nuclei count
CN(C)CCC[C@@]1(c2ccc(F)cc2)OCc2cc(C#N)ccc21: 3.43 z-score and 3.23 z-score
NS(=O)(=O)Cc1noc2ccccc12: 1.73 z-score and 0.152 z-score and 1.01 z-score
COc1cc(NS(=O)(=O)c2ccc(N)cc2)nc(OC)n1: 0.546 z-score
Cc1cn2cc(CC(=O)N3CCC4(CC3)CN(Cc3ccc(-n5nccn5)cc3Cl)C4)nc2s1: 4.33 z-score

Mixed results
CN1CCN(CC/C=C2/c3ccccc3Sc3ccc(S(=O)(=O)N(C)C)cc32)CC1 — IC50 (Synaptic vesicular amine transporter (SLC18A2, Homo sapiens, UniProt Q05940); monoamine uptake, inhibitor): 6.4 µM
CC(C)n1cnc(-c2ccc(F)cc2)c1-c1ncc(C(=O)Nc2ccc(N3CCN(C)CC3)cc2)[nH]1 — patients with Arthritis TEAE (phase 2a clinical trial; patients with idiopathic pulmonary fibrosis; 60 mg once daily): 0%
